Published values from different studies.
A part holds a random share of what one study measured.

Study 1 — technique: protein-binding microarray; molecule type: double-stranded DNA, one strand shown; matrix: in vitro; tested at: 940 nM top; notes: 60-bp whole probe; added: salmon DNA 0.4 mg/ml; relative to: random background probes; direction: higher = stronger binding; endpoint: fitted relative affinity; shared flanks, not repeated: GCCTAGCAC … GTCTTGATTCGCTTGACGCTGCTG
Target: Interferon regulatory factor 5, full length, phosphomimetic (IRF5, Homo sapiens, UniProt Q13568-2, residues 1-514, S451D/S453D/S456D/S462D)
TTAGGTCTCGGACTGGGCTAGTGCTAG: 0.813 z-score
CTCGCCTGGGGATGCTAACAGTGCTAG: -0.333 z-score
GACGATAACAGTCTCGAGACGTGCTAG: 0.941 z-score
TCCTGGAGTCTATGCTGCTGGTGCTAG: -0.311 z-score
TCATTTTTTTTTTCATCATTGTGCTAG: 2.16 z-score
TTAGATTTCAGTATGGATTAGTGCTAG: 0.429 z-score
TTCTTAATGCTTCTGGACCAGTGCTAG: -0.0451 z-score
GACGAACTGGGGGTTCGAGACGTGCTA: 0.298 z-score
GACGGTTTCGTTATCCTGACGTGCTAG: 8.8 z-score
CATTTTCTCTGTTCTAGAAGGTGCTAG: 2.43 z-score

Study 2 — technique: RNA Bind-n-Seq; molecule type: RNA; matrix: in vitro; tested at: 100 nM; relative to: input RNA pool; direction: higher = stronger binding; endpoint: bound/input enrichment
Target: RING finger protein unkempt homolog, zinc fingers 1-6, SBP tag (UNK, Homo sapiens, UniProt Q9C0B0, residues 30-357)
UniProt Q9C0B0, sequence (30-357, looked up): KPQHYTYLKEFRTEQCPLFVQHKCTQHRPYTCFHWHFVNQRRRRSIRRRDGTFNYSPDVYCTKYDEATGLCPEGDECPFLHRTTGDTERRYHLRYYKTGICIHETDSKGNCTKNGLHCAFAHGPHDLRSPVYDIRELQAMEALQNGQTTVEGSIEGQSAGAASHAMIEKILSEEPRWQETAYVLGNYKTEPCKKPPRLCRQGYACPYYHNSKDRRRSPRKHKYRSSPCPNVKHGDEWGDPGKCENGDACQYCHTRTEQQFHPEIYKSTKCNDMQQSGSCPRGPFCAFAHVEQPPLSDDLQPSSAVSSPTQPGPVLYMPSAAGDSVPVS
Notes: RNA with constant flanks, vertebrate orthologous sites, ends assumed
Shared flanks, not repeated: GGGAGUUCUACAGUCCGACGAUC … CAACAGAGGAUUGAGCAUCA
AAUAGUUUUAAGCUUGUUUGCACAGUUUUUUCUUUCCAUUGGAGAUGGAAUUCAUUGCCUUAGGUCUUUUUAAUAGUGUAUUGUUAUUGUUGGGCUGGCUCUAUGCUUGAAAACCAGUUU: 2.07 ratio
AGAAAAUUUUAACCAAGAAUCUGAAGGUAGAAAUUCAGGACCUUGGUUAUCGUCCUCAUUUAGGAAUAGAUGUACACCUUUGUUCUCUAGAAGGAGGCGAGAGGGAAGAGAUGAAUCUUC: 0.508 ratio
CCAGCCUUCCGUAUAGGGUCGGCCUUAAAUCUGUAGGAUUUAUGGCAAAUGUAUUAUAUAUAAUUGCAUUGAGUUUAAUAUUUUUUAUUACCCUGUAAAUGAAGAUGGCAUCUCCUACAU: 0.231 ratio
AAUUCAUCUCUCACUUACCUGAAACUGCUAUGAGGGUUUGAAACUUUGGUUAGUUUCGUGUAGAACUACACUGGCAGGUGCUCAAAUACCGUCAUAGCGAGACGAAAUACCAUCACGGUG: 0.348 ratio
UGAGGGAGAGAUUUCUGUGCUUUCUCAUAUUUAAUUUGCUGUUUUUAAGAUAUUCCAACCUAGAGUUUUUGAUGGAACUGAUAUAUUGACAGUUCUCACCGAAGUCCUUUUAUAAAGAAU: 0.936 ratio
CACUAGUACCCUACCAGCCUACCGACCUCUGGUCUGUGCACAGCUUCAGAUGUUACCGUCUAGCUAGAUUUUUAUUUAAAAUAUGAAAAACUGCUUUUCCCAAGAUGUUUUUUAAAAACA: 0.93 ratio
CGCCCAUUAGUAAAAGCUACCUACUUUCAUUGCAGUAUGUCAAAAGGAUCGAAUGGUCUUUUUCACAUUCAAACUAAAACCUCUUCCAAGUUCACUCUUCUGUACCAUUACAGUUCCUUA: 1.24 ratio

Study 3 — technique: protein binding microarray; molecule type: double-stranded DNA, one strand shown; matrix: in vitro; tested at: not given; relative to: not given; direction: higher = stronger binding; endpoint: E-score
Target: Histone acetyltransferase KAT6A, winged helix 2, GST fusion (KAT6A, Homo sapiens, UniProt Q92794, residues 85-181)
Notes: 8-mer, flanks averaged, mean of 2 arrays, mostly near background
Construct (chain): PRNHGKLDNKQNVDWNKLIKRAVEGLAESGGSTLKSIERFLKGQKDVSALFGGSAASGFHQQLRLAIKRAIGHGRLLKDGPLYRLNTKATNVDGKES
CAGTGCCG: 0.144
ACATGCGC: -0.104
TGAGCAAA: 0.0902
AGTAAGTA: -0.151
GACTACAA: -0.13
CTTCCGAC: 0.114
GTTCTGGA: 0.0411
ACGGTCAT: 0.0172
AATCGTAT: -0.0517
GCGCGGAA: 0.0727
ACAGTTTG: -0.0105

Further values, each from its own experiment
PhoQ, residues 284 288 289 292 302 303 GNNTDL  fold induction (PhoP, residues 12 14 15 18 19 NYFTV (Escherichia coli, UniProt P23836); Sort-seq, measured: YFP reporter; E. coli; PhoQ-PhoP variant library, added: 10 µM Mg2+; relative to: high Mg2+ state, higher = stronger signaling): 2.19

A few entries again (further values, each from its own experiment):
PhoQ, residues 284 288 289 292 302 303 GNNTDL  fold induction (PhoP, residues 12 14 15 18 19 NYFTV (Escherichia coli, UniProt P23836); Sort-seq, measured: YFP reporter; E. coli; PhoQ-PhoP variant library, added: 10 µM Mg2+; relative to: high Mg2+ state, higher = stronger signaling): 2.19
